Measured values from different studies.
Compare with care: the assays were run in different laboratories. “And” joins repeats or separate records; there may be more than shown. ± marks the error that the study gave.
Cell line: Caco-2

`COC(=O)c1ccc2c(c1)NC(=O)/C2=C(\Nc1ccc2c(c1)CCN2C(=O)CN1CCOCC1)c1ccccc1` gave an efflux ratio of 2.64 (2 µM, 120 min, 1% DMSO).
For `COC(=O)NC(C(=O)NN(Cc1ccc(Br)cc1)CC(O)(Cc1ccccc1)C(=O)NC1c2ccccc2CC1O)C(C)(C)C` (centres unmarked), the Papp B-to-A was 246 ± 3.9 ×10⁻⁶ cm/s (pH 7.4, 1% BSA in receiver).
For `CCN(CC)CC#CCNc1ccnc2cc(Cl)ccc12`, the apparent permeability was 15 ×10⁻⁶ cm/s (10 µM, 90 min, pH 7.4; apical to basolateral).
The Papp A-B of `C[n+]1cc2cc3cc(ccc31)NC(=O)CCCCC(=O)Nc1ccc3c(c1)cc(c[n+]3C)C(=O)NCc1cccc(c1)CNC2=O` is reported as 0.1 ×10⁻⁶ cm/s (pH 6.5, intrinsic permeability, with: transporter inhibitor cocktail).
`CCCCn1cc(C(=O)O)c(=O)c2cc(F)c(N)c([N+](=O)[O-])c21` has an IC50 of 468 µM (cell growth or viability, SRB).
With `C#Cc1cccc(Nc2ncnc3cc(OC)c(OCCCN4CCOCC4)cc23)c1` the efflux ratio was 2.51 (10 µM, 90 min; baseline: B-A over A-B).
For `Cc1ncc([N+](=O)[O-])n1CCOCc1nnc(SCC(=O)c2ccc(O)cc2)o1`, the viability was 146% (cell growth or viability, MTT; 6 µM, 48 h).
With `COC(=O)NC(C(=O)NN(Cc1ccc(-c2ccccc2)cc1)CC(O)(Cc1ccccc1)C(=O)NC1c2ccccc2CC1O)C(C)(C)C` (centres unmarked) the Papp B-to-A was 27.9 ± 2 ×10⁻⁶ cm/s (pH 7.4, 1% BSA in receiver).
`C=C(C)C(=O)Nc1ccc(-c2c(-c3ccc(Oc4nccc(C)n4)cc3)c3c(N)ncnc3n2C)cc1` gave an efflux ratio of 1.3 (baseline: B-A over A-B).
With `COCCNC(=O)C(NC(=O)C(O)(Cc1ccccc1)CN(Cc1ccc(Br)cc1)NC(=O)C(NC(=O)OC)C(C)(C)C)C(C)C` (centres unmarked) the Papp B-to-A was 312 ± 89.7 ×10⁻⁶ cm/s (pH 7.4, 1% BSA in receiver).
With `CC1(C)CCN(Cc2ccc(C(=O)NC[C@]3(O)CCCN(c4cc(NCc5ccccc5)ncn4)C3)c(O)c2)CC1` the Papp was 11.8 ×10⁻⁶ cm/s and 12.4 ×10⁻⁶ cm/s (10 µM, 90 min, apical to basolateral, 0.4 % DMSO).
For `COC(=O)NC(C(=O)NN(Cc1ccc(Br)cc1)CC(O)(Cc1ccccc1)C(=O)Nc1cccc(O)c1C)C(C)(C)C` (centres unmarked), the Papp A-to-B was 188 ± 17.4 ×10⁻⁶ cm/s (pH 7.4, 1% BSA in receiver).
With `CCCCn1cc(C(=O)O)c(=O)c2cc(F)c3[nH]nnc3c21` the IC50 was 441 µM (cell growth or viability, SRB).
`COC(=O)NC(C(=O)NN(Cc1ccc(C=Cc2ccccc2)cc1)CC(O)(Cc1ccccc1)C(=O)NC1c2ccccc2CC1O)C(C)(C)C` (centres unmarked) has a Papp B-to-A of 2.5 ± 0.1 ×10⁻⁶ cm/s (pH 7.4, 1% BSA in receiver).
`CCNCC#CCNc1ccnc2cc(Cl)ccc12` has an apparent permeability of 11 ×10⁻⁶ cm/s (10 µM, 90 min, pH 7.4; basolateral to apical).
With `COC(=O)NC(C(=O)NN(Cc1ccc(Br)cc1)CC(O)(Cc1ccccc1)C(=O)NC1CCOC1)C(C)(C)C` (centres unmarked) the Papp B-to-A was 58 ± 7.5 ×10⁻⁶ cm/s (pH 7.4, 1% BSA in receiver).
`O=C1CCCCC(=O)Nc2ccc3ncc(cc3c2)C(=O)NCc2cccc(c2)CNC(=O)c2cnc3ccc(cc3c2)N1` has a Papp A-B of 0.4 ×10⁻⁶ cm/s (pH 6.5, intrinsic permeability, with: transporter inhibitor cocktail).
`COC(=O)NC(C(=O)NN(Cc1ccc(Br)cc1)CC(O)(Cc1ccccc1)C(=O)NCc1ccccc1)C(C)(C)C` (centres unmarked) gave a Papp A-to-B of 90.9 ± 0.4 ×10⁻⁶ cm/s (pH 7.4, 1% BSA in receiver).
`Cc1ncc([N+](=O)[O-])n1CCOCc1nnc(SCC(=O)c2ccc([N+](=O)[O-])cc2)o1` has a viability of 95.7% (cell growth or viability, MTT; 6 µM, 48 h).
For `CC(=NNC(=N)N)c1nnn(-c2ccc(C#CC3(O)CCCCC3)cc2)c1C`, the IC50 was 22 µg/mL (cell growth or viability, MTT).
`Cc1ncc([N+](=O)[O-])n1CCOCc1nnc(SCC(=O)c2ccc(F)cc2)o1` gave a viability of 112% (cell growth or viability, MTT; 6 µM, 48 h).
For `CC[C@H](C)[C@H](NC(=O)CN)C(=O)N[C@H](C(=O)N[C@@H](CC(N)=O)C(=O)N[C@H](C(=O)N[C@@H](CC(C)C)C(=O)N[C@@H](CCC(N)=O)C(=O)N[C@@H](CCCCN)C(=O)N[C@@H](Cc1ccc(O)cc1)C(=O)N[C@@H](Cc1ccc(O)cc1)C(=O)N[C@H]1CSSC[C@@H]2NC(=O)[C@H](CCCCN)NC(=O)[C@H](CCCNC(=N)N)NC(=O)CNC(=O)[C@H](CCCNC(=N)N)NC(=O)[C@H]([C@@H](C)O)NC(=O)[C@H](CO)NC(=O)[C@@H]3CSSC[C@H](NC(=O)[C@H](CCCNC(=N)N)NC(=O)CNC(=O)CNC(=O)[C@H](CCCNC(=N)N)NC(=O)[C@H](C(C)C)NC(=O)[C@H](CCCNC(=N)N)NC1=O)C(=O)N[C@@H](C)C(=O)N[C@@H](C(C)C)C(=O)N[C@@H](CC(C)C)C(=O)N[C@@H](CO)C(=O)N[C@@H](CSSC[C@@H](C(=O)N[C@@H](CCCNC(=N)N)C(=O)N[C@@H](CCCNC(=N)N)C(=O)N[C@@H](CCCCN)C(=O)N[C@@H](CCCCN)C(=O)O)NC2=O)C(=O)N[C@@H](CC(C)C)C(=O)N1CCC[C@H]1C(=O)N[C@@H](CCCCN)C(=O)N[C@@H](CCC(=O)O)C(=O)N[C@@H](CCC(=O)O)C(=O)N[C@@H](CCC(N)=O)C(=O)N[C@@H]([C@@H](C)CC)C(=O)NCC(=O)N[C@@H](CCCCN)C(=O)N3)[C@@H](C)O)[C@@H](C)CC`, the viability reduction was about 25% (MTT; up to 25.0 µM, 48 and 72 h).
`COc1cc(-c2cncc(-c3ccc(N4CCN(C)CC4)cc3)c2C)cc(OC)c1OC` has a Papp A-B of 16.6 ×10⁻⁶ cm/s (5 µM, 120 min, pH 7.4).

For quick reference, copied from above:
With `CCCCn1cc(C(=O)O)c(=O)c2cc(F)c3[nH]nnc3c21` the IC50 was 441 µM (cell growth or viability, SRB).
`COC(=O)NC(C(=O)NN(Cc1ccc(C=Cc2ccccc2)cc1)CC(O)(Cc1ccccc1)C(=O)NC1c2ccccc2CC1O)C(C)(C)C` (centres unmarked) has a Papp B-to-A of 2.5 ± 0.1 ×10⁻⁶ cm/s (pH 7.4, 1% BSA in receiver).
`CCNCC#CCNc1ccnc2cc(Cl)ccc12` has an apparent permeability of 11 ×10⁻⁶ cm/s (10 µM, 90 min, pH 7.4; basolateral to apical).
